Assay results of several laboratories.
Lines come from different studies, so protocols differ. “And” joins repeats or separate records; there may be more than shown. Numbers after ± are the reported error.

C[C@H](O)[C@@H](NC(=O)[C@H]1CCCN1C(=O)[C@@H](CCCCN)NC(=O)[C@@H](CO)NC(=O)[C@@H](Cc1ccc(O)cc1)NC(=O)[C@@H](CC(N)=O)NC(=O)CCOCCOCCOCCNC(=O)CN1CCN(CC(=O)O)CCN(CC(=O)O)CCN(CC(=O)O)CC1)C(=O)N[C@H](CC(=O)O)C(=O)N[C@H](CCCNC(=N)N)C(=O)N[C@H](CCC(N)=O)C(=O)N[C@H](Cc1ccc(O)cc1)C(=O)N[C@H](Cc1c[nH]cn1)C(=O)N[C@H](Cc1ccccc1)C(N)=O [copper-64 labelled]  tissue uptake (C57BL/6J mice, bone; intravenous, 1.85 MBq, 1 h, radiolabelled): 0.41 ± 0.18 %ID/g
CC(CCC(=O)NCC(=O)O)C1CCC2C3CCC4CC(OC5OC(C(=O)O)C(O)C(O)C5O)CCC4(C)C3CC(O)C12C (centres unmarked)  glucuronide to parent ratio (women, T/T genotype, plasma; dose not given, geometric mean): 0.373
CSCC[C@H](NC(=O)CNC(=O)[C@H](CCCCN)NC(=O)[C@H](CC(C)C)NC(=O)[C@@H]1CCCN1C(=O)[C@H](CO)NC(=O)[C@H](Cc1c[nH]cn1)NC(=O)[C@H](Cc1c[nH]c2ccccc12)NC(=O)[C@H](CCCNC(=N)N)NC(=O)[C@H](CC(C)C)NC(=O)[C@H](CCCNC(=N)N)NC(=O)[C@H](Cc1c[nH]c2ccccc12)NC(=O)[C@H](CS)NC(=O)CCCCCNC(=O)CN1CCN(CC(=O)O)CCN(CC(=O)O)CCN(CC(=O)O)CC1)C(=O)O [copper-64 labelled]  tissue uptake (PET imaging; BALB/c nude mice, liver; intravenous, dose not given, 30 h, Huh-7 tumour-bearing): 6.18 ± 0.24 %ID/g
CC(C)C[C@@H](NC(=O)[C@@H](CCCNC(=N)N)NC(=O)[C@@H](Cc1c[nH]cn1)NC(=O)[C@@H](Cc1c[nH]c2ccccc12)NC(=O)[C@@H](Cc1c[nH]cn1)NC(=O)[C@@H](Cc1ccccc1)NC(=O)[C@H](NC(=O)[C@@H](Cc1ccc(O)cc1)NC(=O)CNC(=O)CNC(=O)CCOCCOCCOCCNC(=O)CN1CCN(CC(=O)O)CCN(CC(=O)O)CC1)[C@H](C)O)C(=O)N[C@H](CC(N)=O)C(=O)N1CCC[C@@H]1C(=O)O [gallium-68 labelled]  organ absorbed dose (OLINDA/EXM; adult female human, Gallbladder wall; extrapolated from C57BL/6 mice): 0.0119 ± 0.000115 mSv/MBq
CC[C@H](C)[C@H](NC(=O)[C@H](CCCCN)NC(=O)CNC(=O)[C@H](CC(C)C)NC(=O)[C@H](Cc1ccccc1)NC(=O)[C@H](CCCCN)NC(=O)[C@H](CO)NC(=O)[C@H](Cc1ccccc1)NC(=O)[C@H](Cc1c[nH]c2ccccc12)NC(=O)[C@H](CCC(N)=O)NC(=O)[C@@H](NC(=O)[C@H](Cc1ccccc1)NC(=O)CCCCCNC(=O)CN1CCN(CC(=O)O)CCN(CC(=O)O)CCN(CC(=O)O)CC1)C(C)C)C(=O)N[C@@H](CCC(=O)O)C(=O)N1CCC[C@H]1C(=O)N[C@@H](CC(=O)O)C(=O)N[C@H](C(=O)N[C@@H](CO)C(=O)N[C@@H](CCC(N)=O)C(=O)N[C@H](C(=O)N[C@@H](CCC(N)=O)C(=O)N[C@@H](CC(=O)O)C(=O)N1CCC[C@H]1C(=O)N[C@@H](CC(N)=O)C(=O)N[C@@H](CC(=O)O)C(=O)N[C@@H](CCC(N)=O)C(=O)N[C@@H](Cc1ccc(O)cc1)C(=O)N[C@@H](CCC(=O)O)C(=O)N1CCC[C@H]1C(=O)N[C@@H](Cc1ccccc1)C(=O)O)C(C)C)C(C)C [copper-64 labelled]  SUVmean (dynamic PET; mouse both sexes, CT26 tumour, untreated, tumour; intravenous, 100 µCi/mouse, 130 s): 0.49 SUV
Cc1nnc(-c2ccc(CC(=O)NCCCC[C@H](NC(=O)c3ccc(OCc4ccc(B(O)O)cc4)c(-c4nc5ccccc5c(=O)[nH]4)c3)C(=O)NCC(=O)NCC(=O)NCC(=O)N[C@@H](Cc3ccccc3)C(=O)N[C@@H](Cc3ccccc3)C(=O)O)cc2)nn1  compound remaining (chemical stability; human, serum; 100 µM, 4.98 min): 102%
C#Cc1c(F)ccc2cc(O)cc(-c3ncc4c(N5CC6CCC(C5)N6C(=O)OC(C)OC(=O)CC(C)(C)C)nc(OC[C@@]56CCCN5C[C@H](F)C6)nc4c3F)c12 (some centres unmarked)  t1/2 (measured: prodrug; mouse whole blood; 1 µM): 1.05 h
Cn1nc(NS(C)(=O)=O)c2c(Cl)ccc(-n3c([C@H](Cc4cc(F)cc(F)c4)NC(=O)Cn4nc(C(F)F)c5c4C(F)(F)[C@@H]4C[C@H]54)nc4nc(OCCC(F)(F)F)ccc4c3=O)c21  Cmax (human, plasma; oral, 625 mg single dose, powder in bottle, geometric mean): 329 ng/mL
NC1CCN(C(=O)Oc2ccc(C3CCCC4(C3)OOC3(O4)C4CC5CC(C4)CC3C5)cc2)CC1 (racemic)  MRT (male mouse, plasma; oral, 50 mg/kg): 9.8 h
CCCC[C@H]1C(=O)N(C)[C@@H](CCCC)C(=O)N[C@@H](CCCNC(=O)CN2CCN(CC(=O)O)CCN(CC(=O)O)CCN(CC(=O)O)CC2)C(=O)N[C@H](C(=O)NCC(N)=O)CSCC(=O)N[C@@H](Cc2ccc(O)cc2)C(=O)N(C)[C@@H](C)C(=O)N[C@@H](CC(N)=O)C(=O)N2CCC[C@H]2C(=O)N[C@@H](Cc2c[nH]cn2)C(=O)N[C@@H](CC(C)C)C(=O)N(C)CC(=O)N[C@@H](Cc2c[nH]c3ccccc23)C(=O)N[C@@H](CO)C(=O)N[C@@H](Cc2c[nH]c3ccccc23)C(=O)N1C [gallium-68 labelled]  tissue uptake (NOD/SCID mice with CHO-hPD-L1 xenograft, intestine; 30 min post injection): 2.15 ± 0.1 %ID/g
CCN1CC2(COC)C(O)CC(OC)C34C5CC6(O)C(OC)C(O)C(O)(C5C6OC(=O)c5ccccc5)C(C(OC)C23)C14 (centres unmarked)  Tmax (Sprague-Dawley rat, plasma; oral, dose not given, in PCW extract): 0.75 h
CSCC[C@H](N)C(=O)N[C@@H](C)C(=O)N[C@@H](Cc1c[nH]c2ccccc12)C(=O)N[C@@H](Cc1c[nH]cn1)C(=O)N[C@@H](CC(=O)O)C(=O)N[C@@H](CC(=O)O)C(=O)N[C@@H](CCC(=O)O)C(=O)N[C@@H](CCC(=O)O)C(=O)N[C@@H](Cc1ccccc1)C(=O)N[C@@H](C)C(=O)N[C@@H](CCCNC(=N)N)C(=O)N[C@@H](CCCNC(=N)N)C(=O)N[C@@H](CCCNC(=N)N)C(=O)N[C@@H](CCCNC(=N)N)C(=O)NCCCCCC(=O)NCCCCC(NC(=O)CCCCCNC(=O)[C@H](CCCNC(=N)N)NC(=O)[C@H](CCCNC(=N)N)NC(=O)[C@H](CCCNC(=N)N)NC(=O)[C@H](CCCNC(=N)N)NC(=O)[C@H](C)NC(=O)[C@H](Cc1ccccc1)NC(=O)[C@H](CCC(=O)O)NC(=O)[C@H](CCC(=O)O)NC(=O)[C@H](CC(=O)O)NC(=O)[C@H](CC(=O)O)NC(=O)[C@H](Cc1c[nH]cn1)NC(=O)[C@H](Cc1c[nH]c2ccccc12)NC(=O)[C@H](C)NC(=O)[C@@H](N)CCSC)C(=O)NCCCCC(NC(=O)C(CCCCNC(=O)CCCCCNC(=O)[C@H](CCCNC(=N)N)NC(=O)[C@H](CCCNC(=N)N)NC(=O)[C@H](CCCNC(=N)N)NC(=O)[C@H](CCCNC(=N)N)NC(=O)[C@H](C)NC(=O)[C@H](Cc1ccccc1)NC(=O)[C@H](CCC(=O)O)NC(=O)[C@H](CCC(=O)O)NC(=O)[C@H](CC(=O)O)NC(=O)[C@H](CC(=O)O)NC(=O)[C@H](Cc1c[nH]cn1)NC(=O)[C@H](Cc1c[nH]c2ccccc12)NC(=O)[C@H](C)NC(=O)[C@@H](N)CCSC)NC(=O)CCCCCNC(=O)[C@H](CCCNC(=N)N)NC(=O)[C@H](CCCNC(=N)N)NC(=O)[C@H](CCCNC(=N)N)NC(=O)[C@H](CCCNC(=N)N)NC(=O)[C@H](C)NC(=O)[C@H](Cc1ccccc1)NC(=O)[C@H](CCC(=O)O)NC(=O)[C@H](CCC(=O)O)NC(=O)[C@H](CC(=O)O)NC(=O)[C@H](CC(=O)O)NC(=O)[C@H](Cc1c[nH]cn1)NC(=O)[C@H](Cc1c[nH]c2ccccc12)NC(=O)[C@H](C)NC(=O)[C@@H](N)CCSC)C(N)=O (some centres unmarked)  tissue distribution (C57BL/6 mouse female, colon; dose not given, 3 h; baseline: total): 1.81% and 2.66% and 4.48%
C=C/C=C/C[C@@H](C)[C@@H](O)[C@H]1C(=O)N[C@@H](CC)C(=O)N(C)CC(=O)N(C)[C@@H](CC(C)C)C(=O)N[C@@H](C(C)C)C(=O)N(C)[C@@H](CC(C)C)C(=O)N[C@@H](C)C(=O)N[C@H](C)C(=O)N(C)[C@@H](CC(C)C)C(=O)N(C)[C@@H](CC(C)C)C(=O)N(C)[C@@H](C(C)C)C(=O)N1C  body weight (male Wistar Kyoto rat; intraperitoneal, 0.5 mg/kg/day, day 18): 303 ± 13 g
O=C1NC2(CC2)COc2ncc(F)cc2[C@H]2COCCN2c2ccn3ncc1c3n2  organ-to-brain weight ratio (Sprague-Dawley rat, male, thymus; oral, 10 mg/kg/day, 4 weeks dosing, end of recovery): 18.8 ± 2.48%

Repeated from above:
CC[C@H](C)[C@H](NC(=O)[C@H](CCCCN)NC(=O)CNC(=O)[C@H](CC(C)C)NC(=O)[C@H](Cc1ccccc1)NC(=O)[C@H](CCCCN)NC(=O)[C@H](CO)NC(=O)[C@H](Cc1ccccc1)NC(=O)[C@H](Cc1c[nH]c2ccccc12)NC(=O)[C@H](CCC(N)=O)NC(=O)[C@@H](NC(=O)[C@H](Cc1ccccc1)NC(=O)CCCCCNC(=O)CN1CCN(CC(=O)O)CCN(CC(=O)O)CCN(CC(=O)O)CC1)C(C)C)C(=O)N[C@@H](CCC(=O)O)C(=O)N1CCC[C@H]1C(=O)N[C@@H](CC(=O)O)C(=O)N[C@H](C(=O)N[C@@H](CO)C(=O)N[C@@H](CCC(N)=O)C(=O)N[C@H](C(=O)N[C@@H](CCC(N)=O)C(=O)N[C@@H](CC(=O)O)C(=O)N1CCC[C@H]1C(=O)N[C@@H](CC(N)=O)C(=O)N[C@@H](CC(=O)O)C(=O)N[C@@H](CCC(N)=O)C(=O)N[C@@H](Cc1ccc(O)cc1)C(=O)N[C@@H](CCC(=O)O)C(=O)N1CCC[C@H]1C(=O)N[C@@H](Cc1ccccc1)C(=O)O)C(C)C)C(C)C [copper-64 labelled]  SUVmean (dynamic PET; mouse both sexes, CT26 tumour, untreated, tumour; intravenous, 100 µCi/mouse, 130 s): 0.49 SUV
C[C@H](O)[C@@H](NC(=O)[C@H]1CCCN1C(=O)[C@@H](CCCCN)NC(=O)[C@@H](CO)NC(=O)[C@@H](Cc1ccc(O)cc1)NC(=O)[C@@H](CC(N)=O)NC(=O)CCOCCOCCOCCNC(=O)CN1CCN(CC(=O)O)CCN(CC(=O)O)CCN(CC(=O)O)CC1)C(=O)N[C@H](CC(=O)O)C(=O)N[C@H](CCCNC(=N)N)C(=O)N[C@H](CCC(N)=O)C(=O)N[C@H](Cc1ccc(O)cc1)C(=O)N[C@H](Cc1c[nH]cn1)C(=O)N[C@H](Cc1ccccc1)C(N)=O [copper-64 labelled]  tissue uptake (C57BL/6J mice, bone; intravenous, 1.85 MBq, 1 h, radiolabelled): 0.41 ± 0.18 %ID/g
